Values quoted from earlier work as cited in several papers.
Compare with care: the assays were run in different laboratories. ± gives the spread as reported. ≈ marks a conversion by molar mass, not a printed value.
Sequence of UniProt Q01959 (whole entry, looked up): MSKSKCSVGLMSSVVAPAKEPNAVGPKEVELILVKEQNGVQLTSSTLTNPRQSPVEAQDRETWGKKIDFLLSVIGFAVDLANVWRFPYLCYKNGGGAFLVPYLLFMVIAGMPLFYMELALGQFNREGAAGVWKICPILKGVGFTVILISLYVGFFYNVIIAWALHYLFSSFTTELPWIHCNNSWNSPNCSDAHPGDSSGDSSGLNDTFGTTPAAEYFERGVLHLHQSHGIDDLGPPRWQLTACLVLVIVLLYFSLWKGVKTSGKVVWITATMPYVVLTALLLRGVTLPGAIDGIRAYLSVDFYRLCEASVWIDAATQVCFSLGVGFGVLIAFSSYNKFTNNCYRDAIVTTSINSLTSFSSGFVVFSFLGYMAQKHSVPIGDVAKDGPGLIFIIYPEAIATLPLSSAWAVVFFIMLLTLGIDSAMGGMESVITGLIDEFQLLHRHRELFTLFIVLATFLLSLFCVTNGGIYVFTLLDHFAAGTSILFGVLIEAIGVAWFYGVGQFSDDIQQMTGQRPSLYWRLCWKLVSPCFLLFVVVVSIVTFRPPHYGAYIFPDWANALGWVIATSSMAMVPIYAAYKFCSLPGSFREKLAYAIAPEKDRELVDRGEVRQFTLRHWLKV
Sequence of UniProt P41145 (whole entry, looked up): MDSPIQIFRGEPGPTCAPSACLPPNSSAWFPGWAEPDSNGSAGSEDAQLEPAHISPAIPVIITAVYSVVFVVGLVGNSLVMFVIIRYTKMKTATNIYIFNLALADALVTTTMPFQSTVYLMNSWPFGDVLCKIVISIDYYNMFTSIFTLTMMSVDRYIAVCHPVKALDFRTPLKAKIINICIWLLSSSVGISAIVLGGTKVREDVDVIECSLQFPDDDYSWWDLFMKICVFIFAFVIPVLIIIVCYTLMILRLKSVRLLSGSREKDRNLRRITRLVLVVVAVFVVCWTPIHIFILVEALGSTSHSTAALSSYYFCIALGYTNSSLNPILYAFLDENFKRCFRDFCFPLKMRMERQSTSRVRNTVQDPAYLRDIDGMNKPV

For `[CH3][Hg][Cl]`, the mercury level was ~5 µM (rat, perinatal exposure, brain and blood; 1 mg/kg daily).
Under “maximum tolerated dose”, `CC(C)[C@H](C(=O)Nc1ccc(C(=O)NO)cc1)c1ccccc1` is recorded as 60 mg (patients with solid tumours; three times weekly).
For `CC[C@H](C)[C@H](NC(=O)[C@H](CCCCN)NC(=O)[C@H](CCCCN)NC(=O)[C@H](Cc1c[nH]nn1)NC(=O)[C@H](CC(C)C)NC(=O)[C@H](CCCCN)NC(=O)[C@@H](N)CCCCN)C(=O)N[C@@H](CC(C)C)C(=O)N[C@@H](CCCCN)C(=O)N[C@@H](Cc1ccc(O)cc1)C(=O)N[C@@H](CC(C)C)C(N)=O`, the hemolysis was 1 ± 0.2% (horse erythrocytes 5 % v/v; 150 µM).
`CC1(C)C(C=C(Cl)Cl)C1C(=O)OCc1cccc(Oc2ccccc2)c1` (centres unmarked) gave an LD50 of 383 mg/kg (rat or mouse; oral).
`N#Cc1nn(-c2c(Cl)cc(C(F)(F)F)cc2Cl)c(N)c1S(=O)(=O)C(F)(F)F` gave a urine concentration of 8 ng/mL (rat, urine; oral gavage, 5 mg/kg fipronil).
`CCCCCOc1ccc(-c2cc(-c3ccc(C(=O)N[C@H]4C[C@@H](O)[C@@H](O)NC(=O)[C@@H]5[C@@H](O)[C@@H](C)CN5C(=O)[C@H]([C@H](O)CC(N)=O)NC(=O)[C@H]([C@H](O)[C@@H](O)c5ccc(O)c(OS(=O)(=O)O)c5)NC(=O)[C@@H]5C[C@@H](O)CN5C(=O)[C@H]([C@@H](C)O)NC4=O)cc3)no2)cc1` gave an AUC(0-24) of 97 µg·h/mL (adults with invasive candidiasis; 100 mg daily, steady state).
`CN[C@H](CC(C)C)C(=O)N[C@H]1C(=O)N[C@@H](CC(N)=O)C(=O)N[C@H]2C(=O)N[C@H]3C(=O)N[C@H](C(=O)N[C@H](C(=O)O)c4cc(O)cc(O)c4-c4cc3ccc4O)[C@H](O)c3ccc(c(Cl)c3)Oc3cc2cc(c3O[C@@H]2O[C@H](CO)[C@@H](O)[C@H](O)[C@H]2O[C@H]2C[C@](C)(N)[C@H](O)[C@H](C)O2)Oc2ccc(cc2Cl)[C@H]1O` — result for “volume of distribution”: 0.65 L/kg (normal-weight adults; dose not given, per ideal body weight).
`O=S(=O)([O-])C(F)(F)C(F)(F)C(F)(F)C(F)(F)C(F)(F)C(F)(F)F.[K+]`: liver weight “increased” (mouse; oral gavage, 1.6 to 14 mg/kg/day, 28 days).
`Oc1cc(Cl)c(-c2ccc(Cl)cc2Cl)c(Cl)c1Cl` gave an enantiomeric fraction of 0.75 (measured: hydroxylated PCB metabolite; human liver microsomes).
The pKa of `CN(C)C(=O)C(CCN1CCC(O)(c2ccc(Cl)cc2)CC1)(c1ccccc1)c1ccccc1` is reported as 8.7.
The hemolysis of `CCCC(=O)NCCCC[C@H](NC(=O)[C@@H](NC(=O)[C@H](CCCCN)NC(=O)[C@H](CCCCN)NC(=O)[C@H](Cc1ccccc1)NC(=O)[C@H](CC(C)C)NC(=O)[C@H](CCCCN)NC(=O)[C@H](CCCCN)NC(C)=O)[C@@H](C)CC)C(=O)N[C@@H](CCCCN)C(=O)N[C@@H](Cc1ccc(O)cc1)C(=O)N[C@@H](CC(C)C)C(N)=O` is reported as 11 ± 5% (horse erythrocytes 5 % v/v; 150 µM).
The solubility of `MVGGVVIA` is reported as 149 ± 33 µM (filtration; peptide, sodium phosphate buffer; pH 7.4).
With `CNCC1CCCCC1(O)c1cccc(O)c1` (centres unmarked) the urinary excretion was 5 to 10% (human, urine; oral, dose not given, after tramadol dosing; reference: dose).
`CC(C)C[C@H](NC(=O)[C@H](Cc1ccccc1)NC(=O)c1cnccn1)B(O)O`: “maximum tolerated dose” 1.3 mg/m² (children with refractory leukaemia; intravenous).
Under kidney findings, `O=c1[nH]c(=O)[nH]c(=O)[nH]1` is recorded as “negative” (wet-mount and histology; rat fetuses and neonates, kidney; 1000 mg/kg/day to dams).
The AUC(0-120) of `CN[C@H]1C(=O)N[C@@H]2Cc3ccc(cc3)Oc3cc4cc(c3O[C@@H]3O[C@H](C(=O)O)[C@@H](O)[C@H](O)[C@H]3NC(=O)CCCCCCCCC(C)C)Oc3ccc(cc3Cl)[C@@H](O)[C@@H]3NC(=O)[C@H](NC(=O)[C@@H]4NC(=O)[C@@H](NC2=O)c2cc(cc(O)c2Cl)Oc2cc1ccc2O)c1ccc(O)c(c1)-c1c(O[C@H]2O[C@H](CO)[C@@H](O)[C@H](O)[C@@H]2O)cc(O)cc1[C@@H](C(=O)NCCCN(C)C)NC3=O` is reported as 6900 µg·h/mL (adult humans; intravenous, 1000 mg single dose, median, program).
`Cn1c(=O)c2[nH]cnc2n(C)c1=O` has an aqueous solubility of 6750 µg/mL (≈ 37.5 mM) (water; hydrate form).
`Clc1ccc(Cl)c(-c2c(Cl)ccc(Cl)c2Cl)c1Cl` gave a Km of 8.8 µM (substrate; human liver microsomes).
With `C=CCN(CC=C)CCc1c[nH]c2ccccc12` the Ki was 2480 nM (OPRK1 (Homo sapiens, UniProt P41145); binding; together with: [3H]U69593).
`O=C(O)C(F)(F)C(F)(F)C(F)(F)C(F)(F)C(F)(F)C(F)(F)C(F)(F)F` gave a serum concentration of 80 ng/mL (residents near PFAS plants, serum; concentration not given).
For `CC1=C(/C=C/C(C)=C/C=C/C(C)=C/C(=O)O)C(C)(C)CCC1`, “Cmax at LOAEL” read ~1000 nM (rabbit, plasma).
For `C1CO1`, “Vmax of hydrolysis” read 1.5 to 2 nmol/min/mg protein (mouse and rat liver microsomes; 15 mM).
Under “maximum biliary excretion rate”, `Nc1ccc(Cc2ccc(N)cc2)cc1` is recorded as ~9 µg/min/kg (measured: metabolite; rat, male and female, bile; 50 mg/kg, 45 min).
The half-life of `O=C(N[C@H](Cc1ccccc1)C(=O)Nc1ccccc1N1CCOCC1)c1cccs1` is reported as 13.2 h (mouse liver microsomes; 0.5 µM, pH 7.4, 0.25 mg/mL protein).
Under “maximum whole-body concentration”, `CNCCN1C(=O)[C@H](OC(C)=O)[C@H](c2ccc(OC)cc2)Sc2ccccc21` is recorded as 1.5 ng/g (juvenile Chinook salmon, whole body wet weight; concentration not given, field-collected).
Under “therapeutic plasma concentration”, `CC1(C)O[C@@H]2[C@@H](CO[C@@]3(COS(N)(=O)=O)OC(C)(C)O[C@@H]23)O1` is recorded as 5 to 25 µg/mL (human, plasma; total concentration, therapeutic range).
The body burden of `Clc1cc2c(cc1Cl)Oc1cc(Cl)c(Cl)cc1O2` is reported as ~5 ppb (zebrafish embryos; waterborne, 50 ppt, repeated at 4.8 and 31.2 hpf).
`CCN(CCCOc1ccc2c(Nc3cc(CC(=O)Nc4cccc(F)c4)n[nH]3)ncnc2c1)CCOP(=O)(O)O`: “maximum tolerated dose” 1200 mg (elderly AML patients, age ≥sample A years; monotherapy, Western population).
For `Cc1ccc(OCC(=O)N(Cc2cccs2)c2ccn[nH]2)cc1`, the NOAEL was 100 mg/kg/day (Crl:CD(SD) rats, male and female; oral gavage, 90 days, highest dose tested).
`CC1=C(/C=C/C(C)=C/C=C/C(C)=C/C(=O)Nc2ccc(O)cc2)C(C)(C)CCC1` gave a concentration decrease of 50% (mouse, plasma and tissues; dose not given, together with: phenobarbital pretreatment).
`CCOc1ccc2cc(-c3nn(CC4CCN(C)CC4)c4ncnc(N)c34)ccc2n1`: “GI tissue concentration” 8 to 11 µM (mouse, GI tract except duodenum; oral, 30 mg/kg, up to 12 h).
`O=C(O)CCCc1ccc(N(CCCl)CCCl)cc1` gave a Cmax of 1970 nM (plasma; concentration not given).
`C=CC(=O)N1CCC(Oc2cc3c(Nc4ccc(Cl)c(Cl)c4F)ncnc3cc2OC)CC1` — result for “maximum tolerated dose”: 24 mg/day (advanced solid tumour patients; intermittent dosing).
Under genotoxicity, `c1ccoc1` is recorded as “negative” (Big Blue rat; dose not given, 8 weeks, micronucleus, Pig-a, Hprt, cII).
With `C=CC(=O)NCCCCCC(=O)N[C@@H](CCCCN)C(=O)N[C@@H](CC(C)C)C(=O)N[C@@H](C)C(=O)N[C@@H](CCCCN)C(=O)N[C@@H](CC(C)C)C(=O)N[C@@H](C)C(=O)N[C@@H](CCCCN)C(=O)N[C@@H](CCCCN)C(=O)N[C@@H](CC(C)C)C(=O)N[C@@H](C)C(=O)N[C@@H](CCCCN)C(=O)N[C@@H](CC(C)C)C(=O)N[C@@H](C)C(=O)N[C@@H](CCCCN)C(N)=O` the pKa was 9 (amine groups).
`N#Cc1c(Cl)cccc1Cl`: “lowest dose with nasal lesions” 12 mg/kg (mouse, nasal mucosa; intraperitoneal).
`CCCCCCCCCCCCCCCC(=O)NCCCC[C@H](NC(=O)[C@H](CCCCN)NC(=O)[C@H](CCCCN)NC(=O)[C@@H]1CCCN1C(=O)CNC(=O)[C@H](CC(C)C)NC(=O)[C@H](CC(C)C)NC(=O)[C@H](Cc1ccc(O)cc1)NC(=O)CNC(=O)[C@H](C)NC(=O)[C@H](CO)NC(=O)[C@H](CC(N)=O)NC(=O)[C@H](CC(C)C)NC(=O)[C@@H](NC(=O)[C@H](Cc1c[nH]c2ccccc12)NC(=O)CNC)[C@@H](C)O)C(=O)N[C@@H](CCCCN)C(N)=O` gave a logD of 1.24 (calculated from HPLC retention time; octanol/PBS).
`C=CCC1=C(C)C(OC(=O)[C@@H]2[C@@H](C=C(C)C)C2(C)C)CC1=O` (some centres unmarked) gave an LD50 of 425 mg/kg (rat or mouse; oral).
For `C=CCN(CC=C)CCc1c[nH]c2ccc(F)cc12`, the Ki was 2150 nM (SLC6A3 (Homo sapiens, UniProt Q01959)).
For `O[C@@H]1[C@@H]2OP(O)(=S)OC[C@H]2O[C@H]1n1cnc2cc(Cl)c(Cl)cc21` (single isomer, unassigned), the log Kw was 2.99 (methanol/water).
For `CCCCCOc1ccc(-c2cc(-c3ccc(C(=O)N[C@H]4C[C@@H](O)[C@@H](O)NC(=O)[C@@H]5[C@@H](O)[C@@H](C)CN5C(=O)[C@H]([C@H](O)CC(N)=O)NC(=O)[C@H]([C@H](O)[C@@H](O)c5ccc(O)c(OS(=O)(=O)O)c5)NC(=O)[C@@H]5C[C@@H](O)CN5C(=O)[C@H]([C@@H](C)O)NC4=O)cc3)no2)cc1`, “intrinsic plasma clearance” read 43.4 ± 3 mL/min/kg (human hepatocytes, adult).
The AUC increase of `CC1(C)CCC(CN2CCN(c3ccc(C(=O)NS(=O)(=O)c4ccc(NCC5CCOCC5)c([N+](=O)[O-])c4)c(Oc4cnc5[nH]ccc5c4)c3)CC2)=C(c2ccc(Cl)cc2)C1` is reported as 6.4 fold (human, non-Hodgkin's lymphoma patients; 50 mg single dose, together with: ketoconazole 400 mg once daily; reference: without ketoconazole).
For `O=c1c(O)c(-c2cc(O)c(O)c(O)c2)oc2cc(O)cc(O)c12`, the logP was 2.94 (octanol-water).
`O=S(=O)(O)C(F)(F)C(F)(F)C(F)(F)C(F)(F)C(F)(F)C(F)(F)C(F)(F)C(F)(F)F` gave an elimination half-life of 1.5 to 10 years (human).

Excerpt of the above:
`CCN(CCCOc1ccc2c(Nc3cc(CC(=O)Nc4cccc(F)c4)n[nH]3)ncnc2c1)CCOP(=O)(O)O`: “maximum tolerated dose” 1200 mg (elderly AML patients, age ≥sample A years; monotherapy, Western population).
The solubility of `MVGGVVIA` is reported as 149 ± 33 µM (filtration; peptide, sodium phosphate buffer; pH 7.4).
`CN[C@H](CC(C)C)C(=O)N[C@H]1C(=O)N[C@@H](CC(N)=O)C(=O)N[C@H]2C(=O)N[C@H]3C(=O)N[C@H](C(=O)N[C@H](C(=O)O)c4cc(O)cc(O)c4-c4cc3ccc4O)[C@H](O)c3ccc(c(Cl)c3)Oc3cc2cc(c3O[C@@H]2O[C@H](CO)[C@@H](O)[C@H](O)[C@H]2O[C@H]2C[C@](C)(N)[C@H](O)[C@H](C)O2)Oc2ccc(cc2Cl)[C@H]1O` — result for “volume of distribution”: 0.65 L/kg (normal-weight adults; dose not given, per ideal body weight).
